Results gathered from unrelated publications.
Each numbered part is a random draw from the data of one study; scales do not carry over between parts.
Sequence of UniProt P49761 (whole entry, looked up): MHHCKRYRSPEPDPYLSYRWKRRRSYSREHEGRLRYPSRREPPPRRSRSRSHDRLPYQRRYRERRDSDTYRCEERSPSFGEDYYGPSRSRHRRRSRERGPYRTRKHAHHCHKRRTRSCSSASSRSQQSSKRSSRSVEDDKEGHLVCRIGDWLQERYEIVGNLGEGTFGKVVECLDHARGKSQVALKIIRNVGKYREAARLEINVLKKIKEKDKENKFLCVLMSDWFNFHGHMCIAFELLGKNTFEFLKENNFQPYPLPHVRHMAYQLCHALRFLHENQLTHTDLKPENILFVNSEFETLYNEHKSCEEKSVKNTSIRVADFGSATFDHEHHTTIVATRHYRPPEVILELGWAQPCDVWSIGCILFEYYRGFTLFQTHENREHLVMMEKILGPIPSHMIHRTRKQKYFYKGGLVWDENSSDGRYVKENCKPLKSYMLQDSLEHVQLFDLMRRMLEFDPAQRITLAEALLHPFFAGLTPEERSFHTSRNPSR
Sequence of UniProt P08631 (whole entry, looked up): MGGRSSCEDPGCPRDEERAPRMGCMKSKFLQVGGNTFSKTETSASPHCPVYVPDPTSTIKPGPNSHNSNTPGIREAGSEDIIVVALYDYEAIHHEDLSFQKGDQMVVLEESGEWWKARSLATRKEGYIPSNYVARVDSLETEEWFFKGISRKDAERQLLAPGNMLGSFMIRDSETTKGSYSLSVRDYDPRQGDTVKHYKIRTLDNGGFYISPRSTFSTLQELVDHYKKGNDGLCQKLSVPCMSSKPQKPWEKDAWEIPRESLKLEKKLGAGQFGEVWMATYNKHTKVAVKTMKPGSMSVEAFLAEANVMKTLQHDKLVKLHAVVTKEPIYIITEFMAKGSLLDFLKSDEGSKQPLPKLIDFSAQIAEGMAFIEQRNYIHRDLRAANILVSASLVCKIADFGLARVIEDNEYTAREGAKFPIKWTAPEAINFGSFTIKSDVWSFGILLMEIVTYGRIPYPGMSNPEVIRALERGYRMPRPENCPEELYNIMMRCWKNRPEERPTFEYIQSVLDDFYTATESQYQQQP
Sequence of UniProt Q86YV6 (whole entry, looked up): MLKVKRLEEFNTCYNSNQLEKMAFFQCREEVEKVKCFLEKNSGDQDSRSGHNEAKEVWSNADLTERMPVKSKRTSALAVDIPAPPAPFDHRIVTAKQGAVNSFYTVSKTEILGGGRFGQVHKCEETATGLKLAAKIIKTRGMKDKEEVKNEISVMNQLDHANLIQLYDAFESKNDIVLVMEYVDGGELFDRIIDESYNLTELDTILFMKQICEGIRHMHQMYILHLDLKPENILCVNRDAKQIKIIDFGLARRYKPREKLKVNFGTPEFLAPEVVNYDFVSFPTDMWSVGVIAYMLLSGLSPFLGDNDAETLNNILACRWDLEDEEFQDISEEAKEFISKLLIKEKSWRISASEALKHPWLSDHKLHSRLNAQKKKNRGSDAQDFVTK
Sequence of UniProt O60285 (whole entry, looked up): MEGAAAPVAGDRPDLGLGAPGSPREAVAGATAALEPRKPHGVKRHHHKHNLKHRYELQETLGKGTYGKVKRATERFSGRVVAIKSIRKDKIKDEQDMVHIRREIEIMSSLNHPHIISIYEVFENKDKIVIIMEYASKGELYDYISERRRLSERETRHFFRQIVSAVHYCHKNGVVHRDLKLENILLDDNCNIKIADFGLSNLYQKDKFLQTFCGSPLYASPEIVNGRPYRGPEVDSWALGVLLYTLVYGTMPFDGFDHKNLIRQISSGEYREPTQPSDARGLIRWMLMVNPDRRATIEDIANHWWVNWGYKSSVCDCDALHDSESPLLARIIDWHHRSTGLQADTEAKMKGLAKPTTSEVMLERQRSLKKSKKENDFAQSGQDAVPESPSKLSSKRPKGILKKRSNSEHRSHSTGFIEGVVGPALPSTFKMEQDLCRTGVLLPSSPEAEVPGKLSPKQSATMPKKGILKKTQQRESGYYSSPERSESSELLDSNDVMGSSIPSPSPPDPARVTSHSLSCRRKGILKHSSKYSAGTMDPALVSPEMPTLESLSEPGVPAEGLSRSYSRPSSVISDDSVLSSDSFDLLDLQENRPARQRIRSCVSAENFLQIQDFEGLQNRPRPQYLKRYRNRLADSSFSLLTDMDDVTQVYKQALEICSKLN
Sequence of UniProt Q2M2I8 (whole entry, looked up): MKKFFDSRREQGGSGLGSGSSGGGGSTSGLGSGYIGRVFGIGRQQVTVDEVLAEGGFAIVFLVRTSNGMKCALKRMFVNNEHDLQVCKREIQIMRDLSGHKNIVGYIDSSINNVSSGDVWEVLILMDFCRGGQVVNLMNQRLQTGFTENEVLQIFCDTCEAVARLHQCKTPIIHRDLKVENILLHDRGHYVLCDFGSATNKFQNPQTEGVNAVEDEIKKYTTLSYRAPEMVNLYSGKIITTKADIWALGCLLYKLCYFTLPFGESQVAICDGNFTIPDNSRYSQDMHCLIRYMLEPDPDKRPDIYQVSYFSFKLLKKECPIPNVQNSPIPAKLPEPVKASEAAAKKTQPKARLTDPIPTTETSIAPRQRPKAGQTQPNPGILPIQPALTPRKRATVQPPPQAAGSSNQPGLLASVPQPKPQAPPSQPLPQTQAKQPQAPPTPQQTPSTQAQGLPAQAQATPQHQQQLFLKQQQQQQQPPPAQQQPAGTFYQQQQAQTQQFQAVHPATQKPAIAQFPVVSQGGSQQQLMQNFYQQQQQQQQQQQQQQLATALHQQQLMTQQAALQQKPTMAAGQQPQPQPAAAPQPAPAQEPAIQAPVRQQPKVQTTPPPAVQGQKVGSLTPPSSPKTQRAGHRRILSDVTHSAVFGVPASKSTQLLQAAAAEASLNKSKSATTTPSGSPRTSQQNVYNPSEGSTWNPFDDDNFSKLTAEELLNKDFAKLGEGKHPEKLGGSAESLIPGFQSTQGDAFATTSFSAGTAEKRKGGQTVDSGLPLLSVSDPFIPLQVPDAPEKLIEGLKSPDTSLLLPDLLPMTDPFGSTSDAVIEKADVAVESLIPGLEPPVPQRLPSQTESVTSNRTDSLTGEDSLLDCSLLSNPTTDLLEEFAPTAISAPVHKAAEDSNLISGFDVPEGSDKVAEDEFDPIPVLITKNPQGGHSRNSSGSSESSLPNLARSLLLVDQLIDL
Sequence of UniProt Q9NYY3 (whole entry, looked up): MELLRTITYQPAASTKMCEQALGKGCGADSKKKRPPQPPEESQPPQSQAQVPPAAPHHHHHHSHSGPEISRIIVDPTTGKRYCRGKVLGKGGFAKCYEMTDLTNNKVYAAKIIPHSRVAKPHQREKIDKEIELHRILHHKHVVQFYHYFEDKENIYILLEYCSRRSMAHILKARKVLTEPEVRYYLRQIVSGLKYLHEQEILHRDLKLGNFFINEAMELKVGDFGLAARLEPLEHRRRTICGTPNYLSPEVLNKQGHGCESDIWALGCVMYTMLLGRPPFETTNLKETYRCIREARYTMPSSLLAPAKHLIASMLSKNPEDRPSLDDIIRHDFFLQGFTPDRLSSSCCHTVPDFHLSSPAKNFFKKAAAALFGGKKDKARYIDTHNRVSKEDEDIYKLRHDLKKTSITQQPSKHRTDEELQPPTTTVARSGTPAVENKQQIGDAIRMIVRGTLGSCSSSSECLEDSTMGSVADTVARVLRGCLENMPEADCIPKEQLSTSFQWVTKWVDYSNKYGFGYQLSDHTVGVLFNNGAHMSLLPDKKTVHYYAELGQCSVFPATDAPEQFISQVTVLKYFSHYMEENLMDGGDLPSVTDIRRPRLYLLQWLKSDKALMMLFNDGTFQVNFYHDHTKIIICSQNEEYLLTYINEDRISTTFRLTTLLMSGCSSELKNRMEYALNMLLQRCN
Sequence of UniProt O43293 (whole entry, looked up): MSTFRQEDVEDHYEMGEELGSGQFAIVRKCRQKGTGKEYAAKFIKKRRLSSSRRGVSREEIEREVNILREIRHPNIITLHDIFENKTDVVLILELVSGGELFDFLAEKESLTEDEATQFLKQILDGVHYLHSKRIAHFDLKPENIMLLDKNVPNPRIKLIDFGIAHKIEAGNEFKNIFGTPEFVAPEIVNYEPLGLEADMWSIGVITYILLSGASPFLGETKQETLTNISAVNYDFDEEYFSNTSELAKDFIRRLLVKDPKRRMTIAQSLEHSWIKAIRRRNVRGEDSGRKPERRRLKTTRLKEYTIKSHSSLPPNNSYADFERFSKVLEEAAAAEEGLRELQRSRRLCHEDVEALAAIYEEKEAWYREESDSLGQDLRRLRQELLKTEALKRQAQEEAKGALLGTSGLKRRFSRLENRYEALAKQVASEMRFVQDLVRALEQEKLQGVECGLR

Sample 1
Target: Beta-1 adrenergic receptor (ADRB1, Homo sapiens, UniProt P08588)
Sequence of UniProt P08588 (whole entry, looked up): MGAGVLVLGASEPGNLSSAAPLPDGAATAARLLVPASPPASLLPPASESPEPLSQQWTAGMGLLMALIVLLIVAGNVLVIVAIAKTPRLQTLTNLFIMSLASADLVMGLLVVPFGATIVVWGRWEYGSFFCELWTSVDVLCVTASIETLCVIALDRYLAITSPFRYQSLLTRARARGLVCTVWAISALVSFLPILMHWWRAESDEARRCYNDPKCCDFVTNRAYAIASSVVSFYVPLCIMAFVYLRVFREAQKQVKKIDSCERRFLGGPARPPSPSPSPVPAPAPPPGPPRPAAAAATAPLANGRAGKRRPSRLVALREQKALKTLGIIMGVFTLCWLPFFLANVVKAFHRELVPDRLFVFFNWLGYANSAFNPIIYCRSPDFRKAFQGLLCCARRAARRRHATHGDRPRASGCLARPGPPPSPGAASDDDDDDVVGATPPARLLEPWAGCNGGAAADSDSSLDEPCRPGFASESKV
Mode: antagonist
`Cn1c(=O)cc(N2CCN(c3cccc(Cl)c3)CC2)[nH]c1=O` has an IC50 of ≥ 100 µM.
The IC50 of `Cc1cc(-c2cc(C)c3ccccc3n2)c(C)o1` is reported as ≥ 100 µM.
With `C[C@@H](c1ccc2nccn2c1)n1nnc2ncc(-c3cnn(C)c3)nc21` the IC50 was ≥ 100 µM.
The IC50 of `O=Cc1cc2ccccc2nc1N1CCOCC1` is reported as ≥ 100 µM.
With `N#Cc1ccc(C(O)CN2CC=C(C3=NNC(=O)CC3)CC2)cc1` (stereo not shown) the IC50 was ≥ 100 µM.

Sample 2
Compound: Cc1nc(N2CC[C@@H](O)C2)ncc1-c1cc(C(F)(F)F)cc2[nH]ncc12
Tested at: 1 µM
For AAK1 (Homo sapiens, UniProt Q2M2I8); binding: remaining binding read 100%.
EPHA7 (Homo sapiens, UniProt Q15375); cell-free assay, competition with immobilised ligand — remaining binding: 63%.
It gave 76% for remaining binding (PLK2 (Homo sapiens, UniProt Q9NYY3); binding, competition with immobilised ligand).
It gave 90% for remaining binding (FGFR1 (Homo sapiens, UniProt P11362); cell-free assay, competition with immobilised ligand).
It gave 80% for remaining binding (AXL (Homo sapiens, UniProt P30530); binding, competition with immobilised ligand).
For HCK (Homo sapiens, UniProt P08631); cell-free assay, competition with immobilised ligand: remaining binding read 100%.
The remaining binding was 90% (CDK13 (Homo sapiens, UniProt Q14004); binding, competition with immobilised ligand).
It gave 76% for remaining binding (CLK3 (Homo sapiens, UniProt P49761); binding, competition with immobilised ligand).
MAP2K2 (Homo sapiens, UniProt P36507); binding, competition with immobilised ligand — remaining binding: 74%.
The remaining binding was 100% (DAPK3 (Homo sapiens, UniProt O43293); binding, competition with immobilised ligand).
For PIP4K2C (Homo sapiens, UniProt Q8TBX8); binding, competition with immobilised ligand: remaining binding read 100%.
The remaining binding was 100% (MYLK4 (Homo sapiens, UniProt Q86YV6); cell-free assay, competition with immobilised ligand).
NUAK1 (Homo sapiens, UniProt O60285); binding, competition with immobilised ligand — remaining binding: 83%.
TNIK (Homo sapiens, UniProt Q9UKE5); binding, competition with immobilised ligand — remaining binding: 100%.
The remaining binding was 68% (MAP2K5 (Homo sapiens, UniProt Q13163); binding, competition with immobilised ligand).

Sample 3
Species: mouse
Medium: microsomes or S9
Tested at: 2 µM
Time: 0.5 h
`O=C(COc1ccc(Cl)cc1Cl)OCCNC1=NS(=O)(=O)c2ccccc21` gave a remaining compound of < 1%.
With `Fc1ccccc1C(c1nnc(-c2ccccc2)o1)N1CCc2ccccc2C1` (stereo not shown) the remaining compound was 2.46%.
The remaining compound of `COC(=O)c1cc(OC)c(OC)cc1NC(=O)c1c(Br)cnn1C` is reported as 3.65%.
`O=S(=O)(NC1CCCCC1)c1ccc(-c2nnc(C3CCC3)o2)s1` has a remaining compound of 27.6%.
`CCCS(=O)(=O)c1nc2ccc(NS(=O)(=O)Cc3ccccc3)cc2s1` has a remaining compound of 28.8%.
The remaining compound of `Cc1nn(C(C)C(=O)N(C)Cc2cnn(C)c2)cc1Br` (stereo not shown) is reported as 61.3%.

Sample 4
Organism: Sarcocystis neurona
Effect on: parasite growth
Tested at: 10 µM
Setting: second screen
Reference: untreated
`CN1CCN(c2c(F)cc3c(=O)c(C(=O)O)cn4c3c2SCC4)CC1.Cl` — result for “log2 fold change”: 0.32.
For `C[C@]12CCC(=O)C=C1CC[C@@H]1[C@@H]2CC[C@@]2(C)[C@H]1CC[C@]2(O)C(=O)CO`, “log2 fold change” read -0.48.
Under “log2 fold change”, `CC1=C(C/C=C(\C)CCC[C@H](C)CCC[C@H](C)CCCC(C)C)C(=O)c2ccccc2C1=O` is recorded as 0.42.
For `NS(=O)(=O)c1cc2c(cc1C(F)(F)F)NC(Cc1ccccc1)NS2(=O)=O` (stereo not shown), “log2 fold change” read 0.44.
Under “log2 fold change”, `Cl.NC[C@H](O)c1ccc(O)c(O)c1` is recorded as 0.45.

For quick reference, copied from above (sample 2):
It gave 76% for remaining binding (PLK2 (Homo sapiens, UniProt Q9NYY3); binding, competition with immobilised ligand).
It gave 90% for remaining binding (FGFR1 (Homo sapiens, UniProt P11362); cell-free assay, competition with immobilised ligand).
It gave 80% for remaining binding (AXL (Homo sapiens, UniProt P30530); binding, competition with immobilised ligand).
For HCK (Homo sapiens, UniProt P08631); cell-free assay, competition with immobilised ligand: remaining binding read 100%.
The remaining binding was 90% (CDK13 (Homo sapiens, UniProt Q14004); binding, competition with immobilised ligand).
